Published values pooled from the literature.
Lines come from different studies, so protocols differ. “And” joins repeats or separate records; there may be more than shown. ± gives the spread as reported.

Structure (SMILES) | cell line | assay | conditions | how to read | quantity | result
CC[C@H](C)[C@H](NC(=O)CNC(=O)[C@H](CCCCN)NC(=O)[C@H](CO)NC(=O)[C@H](CCCCN)NC(=O)CNC(=O)[C@H](CC(=O)O)NC(=O)[C@H](CCCCN)NC(=O)[C@H](CO)NC(=O)[C@@H](NC(=O)[C@H](CC(C)C)NC(=O)[C@H](CCCNC(=N)N)NC(=O)[C@@H](NC(=O)[C@H](CCC(=O)O)NC(=O)[C@H](C)NC(=O)[C@H](CCCNC(=N)N)NC(=O)[C@H](CCCNC(=N)N)NC(=O)[C@H](CCCNC(=N)N)NC(=O)[C@H](CCC(N)=O)NC(=O)[C@H](CCCNC(=N)N)NC(=O)[C@H](CCCNC(=N)N)NC(=O)[C@H](CCCCN)NC(=O)[C@H](CCCCN)NC(=O)[C@H](CCCNC(=N)N)NC(=O)CNC(=O)[C@@H](N)Cc1ccc(O)cc1)[C@@H](C)CC)C(C)C)C(=O)N[C@@H](C)C(=O)N[C@@H](Cc1ccc(O)cc1)C(=O)N[C@H](C(=O)N[C@@H](CCC(=O)O)C(=O)N[C@@H](Cc1ccccc1)C(=O)N[C@@H](CCCCN)C(=O)O)[C@@H](C)CC | HEK293 | RT-PCR, item: GADD45A | concentration not given | – | mRNA level | no effect
CC/C=C\C/C=C\C/C=C\C/C=C\C/C=C\C/C=C\CCC(=O)Nc1ccn(C2OC(CO)C(O)C2(F)F)c(=O)n1 (stereo not drawn) | SK-OV-3 | NCI60 screen | – | – | CC50 | > 100000 nM
COc1ccnc(Nc2c3c(nc4ccc(Cl)cc24)CCCC3)c1 | SH-SY5Y | MTT | 50 µM, 1 h pretreatment, 10% FBS, with: H2O2 | – | viability | 39.1 ± 1.43%
CC(C)=CCC/C(C)=C/C[P+](c1ccccc1)(c1ccccc1)c1ccccc1 | SK-OV-3 | cell growth or viability, MTT | 72 h | – | GI50 | 1270 nM
COC(=O)C1=CO[C@@H](OC(C)=O)[C@@H]2C(Cn3cc(COCc4ccc(OC)cc4)nn3)=CC[C@H]12 | SK-N-SH | neuroprotection, MTT | 0.15 µM, 24 h, with: 250 µM H2O2 | – | viability | 65.9 ± 0.7%
CSCC[C@H](NC(=O)[C@H](CC(C)C)NC(=O)[C@H](Cc1c[nH]cn1)NC(=O)CNC(=O)[C@@H](NC(=O)[C@H](C)NC(=O)[C@H](Cc1c[nH]c2ccccc12)NC(=O)[C@H](CCC(N)=O)NC(=O)CCCCCCCNC(=O)CCC(=O)Nc1ccc(CNC23CNCCNCC(N)(CNCCNC2)CNCCNC3)cc1)C(C)C)C(N)=O [copper-64 labelled] | PC-3 | – | 0 to 60 min | – | initial internalization rate | 2.6 fmol/mg/min
CN(C)C1=[S+][Au-]2([S]1)[c]1ccccc1P(c1ccccc1)(c1ccccc1)=[N+]2c1ccccc1.F[P-](F)(F)(F)(F)F (stereo not drawn) | human PBMC | annexin V flow cytometry | 0.5 µM, 24 h | – | cell death | 17%
COC(=O)C1=CO[C@@H](O)[C@@H]2C(Cn3cc(C(O)(c4ccccc4)c4ccccc4)nn3)=CC[C@H]12 | SK-N-SH | neuroprotection, MTT | 0.6 µM, 24 h, with: 250 µM H2O2 | – | viability | 69.2 ± 1.7%
C[OH+][Cu-2]12[O]C(c3cn(-c4ccccc4)nc3-c3ccc(Cl)cc3)=N[N+]1=C(C)c1c(cc(C)oc1=O)[O]2 (stereo not drawn) | A549 and Vero cells | cell viability, MTT | – | relative to: IC50 Vero over IC50 A549 | selectivity index | > 13 and 13.5
O=C1C=CC(=O)c2c(O)ccc(O)c21 | MOLT-3 | cytotoxicity, XTT | – | relative to: IC50 MRC5 over IC50 MOLT-3 | selectivity ratio | 43.6
CC(C)C[C@H](NC(=O)[C@H](CO)NC(=O)[C@H](Cc1c[nH]c2ccccc12)NC(=O)[C@H](Cc1ccccc1)NC(=O)[C@H](Cc1ccccc1)NC(=O)[C@H](CCC(N)=O)NC(=O)[C@@H]1CCCN1C(=O)[C@H](CCCNC(=N)N)NC(=O)[C@H](CCCNC(=N)N)NC(=O)[C@H](CCCNC(=N)N)NC(=O)[C@H](CCC(N)=O)NC(=O)[C@H](CCCNC(=N)N)NC(=O)[C@H](CCCNC(=N)N)NC(=O)[C@H](CCCCN)NC(=O)[C@H](CCCCN)NC(=O)[C@H](CCCNC(=N)N)NC(=O)CNC(=O)[C@@H](N)Cc1ccc(O)cc1)C(=O)N[C@@H](CS)C(=O)N[C@H](C(=O)N[C@@H](C)C(=O)O)[C@@H](C)O | Jurkat | CellTiter-Glo | 15 µM, 18 h, 0.5% FBS | relative to: control | ATP level | 10%
COC(=O)C1=CO[C@@H](OC(C)=O)[C@@H]2C(Cn3cc(CCO)nn3)=CC[C@H]12 | SK-N-SH | neuroprotection, MTT | 0.075 µM, 24 h, with: 250 µM H2O2 | – | viability | 83.5 ± 2.5%
Cc1ccc(CNc2c(NC3CCN(Cc4ccccc4)CC3)c(=O)c2=O)cc1 | SH-SY5Y | neuroprotection, MTT | 12.5 µM, 24 h pretreatment, with: H2O2 650 µM for 4 h | – | cell survival | 58.9%
COC(=O)C1=CO[C@@H](O)[C@@H]2C(Cn3cc(CON4C(=O)c5ccccc5C4=O)nn3)=CC[C@H]12 | SK-N-SH | neuroprotection, MTT | 0.3 µM, 24 h, with: 250 µM H2O2 | – | viability | 73.6 ± 1.6%
CSCC[C@H](NC(=O)[C@@H](NC(=O)[C@H](CCSC)NC(=O)[C@H](Cc1ccc(O)cc1)NC(=O)[C@H](CCCCN)NC(=O)[C@@H](N)Cc1c[nH]c2ccccc12)C(C)C)C(N)=O | human neutrophils | chemotaxis, agonist | – | – | EC50 | 2 nM

A few entries again:
Structure (SMILES) | cell line | assay | conditions | how to read | quantity | result
O=C1C=CC(=O)c2c(O)ccc(O)c21 | MOLT-3 | cytotoxicity, XTT | – | relative to: IC50 MRC5 over IC50 MOLT-3 | selectivity ratio | 43.6
CC[C@H](C)[C@H](NC(=O)CNC(=O)[C@H](CCCCN)NC(=O)[C@H](CO)NC(=O)[C@H](CCCCN)NC(=O)CNC(=O)[C@H](CC(=O)O)NC(=O)[C@H](CCCCN)NC(=O)[C@H](CO)NC(=O)[C@@H](NC(=O)[C@H](CC(C)C)NC(=O)[C@H](CCCNC(=N)N)NC(=O)[C@@H](NC(=O)[C@H](CCC(=O)O)NC(=O)[C@H](C)NC(=O)[C@H](CCCNC(=N)N)NC(=O)[C@H](CCCNC(=N)N)NC(=O)[C@H](CCCNC(=N)N)NC(=O)[C@H](CCC(N)=O)NC(=O)[C@H](CCCNC(=N)N)NC(=O)[C@H](CCCNC(=N)N)NC(=O)[C@H](CCCCN)NC(=O)[C@H](CCCCN)NC(=O)[C@H](CCCNC(=N)N)NC(=O)CNC(=O)[C@@H](N)Cc1ccc(O)cc1)[C@@H](C)CC)C(C)C)C(=O)N[C@@H](C)C(=O)N[C@@H](Cc1ccc(O)cc1)C(=O)N[C@H](C(=O)N[C@@H](CCC(=O)O)C(=O)N[C@@H](Cc1ccccc1)C(=O)N[C@@H](CCCCN)C(=O)O)[C@@H](C)CC | HEK293 | RT-PCR, item: GADD45A | concentration not given | – | mRNA level | no effect
